Results collected from several papers.
Each line is one published result; not all experiments were run side by side. Several values in a cell are separate wells, animals, samples, runs or records. ± gives the spread as reported.
Chain of UniProt Q9UNQ0 (whole entry, looked up): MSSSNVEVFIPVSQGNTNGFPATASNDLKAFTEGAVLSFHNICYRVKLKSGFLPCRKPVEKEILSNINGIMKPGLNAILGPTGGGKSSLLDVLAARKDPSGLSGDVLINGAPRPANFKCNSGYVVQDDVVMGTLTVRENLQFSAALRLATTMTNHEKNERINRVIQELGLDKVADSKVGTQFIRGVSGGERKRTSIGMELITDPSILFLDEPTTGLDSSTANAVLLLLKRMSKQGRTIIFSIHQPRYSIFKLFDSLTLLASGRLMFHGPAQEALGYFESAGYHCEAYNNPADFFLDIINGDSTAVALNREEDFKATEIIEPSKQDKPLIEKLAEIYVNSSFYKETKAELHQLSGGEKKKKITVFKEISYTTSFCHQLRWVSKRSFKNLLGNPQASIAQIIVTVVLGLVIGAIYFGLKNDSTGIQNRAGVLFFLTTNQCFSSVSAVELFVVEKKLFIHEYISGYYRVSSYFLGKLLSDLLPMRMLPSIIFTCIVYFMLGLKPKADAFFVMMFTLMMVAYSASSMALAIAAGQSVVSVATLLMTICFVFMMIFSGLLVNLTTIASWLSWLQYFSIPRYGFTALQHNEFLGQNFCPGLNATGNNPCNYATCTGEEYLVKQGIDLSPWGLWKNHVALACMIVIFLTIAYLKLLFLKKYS

SMILES | tested on | test | test system | conditions | scale | endpoint | result
O=C1NC2(CC2)COc2ncc(F)cc2[C@H]2COCCN2c2ccn3ncc1c3n2 |  |  | Sprague-Dawley rat, female, serum | oral, 10 mg/kg/day, end of recovery, 4-week subacute toxicity |  | serum LDH activity | 591 ± 213 U/L
O=C1CC[C@H]2[C@H]3Cc4ccc(O)c5c4[C@@]2(CCN3CCc2ccccc2)[C@H]1O5 |  |  | octanol/phosphate buffer | 1 h, pH 7.38, ionic strength 0.15 M |  | logD | 1.67
Cc1nc2cccc(OCC(C)(C)C(=O)NC(C)C)c2c(N)c1C(=O)[O-].[Na+] | Escherichia coli | reverse mutation, plate incorporation | WP2 uvrA | 0.051 mg/plate, without S9 |  | revertant colonies | 30 ± 7 colonies/plate
Cc1ccc(OC[C@H]2CCCN2C)cc1C(=O)N[C@H](C)c1cc(-c2cnn(C)c2)nc2ccccc12 | Vero E6 |  |  | 250 µM |  | viability | 0.632% and 0.158%
Cc1cc(-c2ccc3ccccc3c2)nnc1NCCN1CCN(C)CC1 | Broad substrate specificity ATP-binding cassette transporter ABCG2 (ABCG2, Homo sapiens, UniProt Q9UNQ0) | transporter uptake, inhibitor |  | 10 µM |  | inhibition | 0%
COc1ccc2c3c1O[C@H]1[C@H](O)CC[C@@]4(O)[C@@H](C2)N(C)CC[C@]314 |  | pH-potentiometric titration |  |  | reference: O-methyl derivative | Δlog K, isomerization effect | 0.07 log units
Cc1ccc(N2CCN(C)[C@H](C)C2)cc1C(=O)N[C@H](C)c1cc(-c2cnn(C)c2)nc2ccccc12 | Vero E6 |  |  | 500 µM |  | viability | 0.785% and 0%
CNC(=O)C[C@H](Cc1ccccc1)NC(=O)[C@@H](Cc1ccc(Cl)cc1Cl)NC(=O)[C@H](N)Cc1ccccc1C#N | Huh-7-ACE2 | CellTiter-Glo |  | 1.562 µM, 48 h, unit not given | reference: DMSO | viability | 0.799 and 1.03 and 0.913
CCn1ccc(-c2cc([C@@H](C)NC(=O)c3cc(N4CC5CCC(C4)N5C)ccc3C)c3ccccc3n2)n1 | Vero E6 |  |  | 7.812 µM |  | viability | 92.7% and 85% and 96.6%
CNC(=O)C1CCCN(C(=O)C2CC3CCC2N3C(=O)[C@@H]2C[C@@H](O)CN2C(=O)NCc2cccc(Cl)c2F)C1 (mixture of isomers) | CYP3A4 (human) | inhibitor, time-dependent inhibition |  | 0.617 µM, preincubated with NADPH, with: midazolam substrate | reference: negative control | remaining activity | 97.8%

For quick reference, copied from above:
SMILES | tested on | test | test system | conditions | scale | endpoint | result
Cc1nc2cccc(OCC(C)(C)C(=O)NC(C)C)c2c(N)c1C(=O)[O-].[Na+] | Escherichia coli | reverse mutation, plate incorporation | WP2 uvrA | 0.051 mg/plate, without S9 |  | revertant colonies | 30 ± 7 colonies/plate
